Measured values from different studies.
Each line is one published result; not all experiments were run side by side. Numbers after ± are the reported error.

Substance | assay | test system | setting | scale | quantity | value
COc1cccc2c1cc1c3c(cc4c(c32)OCO4)C(=O)N1 | HPLC | rat (Wistar, male), urine | subcutaneous, 2 mg of aristolochic acid I, 24 h collection |  | urine concentration | 0.018 µM
N=C(N)NCCC[C@H](NC(=O)[C@H](Cc1c[nH]c2ccccc12)NC(=O)[C@H](CCC(N)=O)NC(=O)[C@H](Cc1c[nH]c2ccccc12)NC(=O)[C@@H](N)CCCNC(=N)N)C(=O)N[C@@H](Cc1c[nH]c2ccccc12)C(=O)N[C@@H](CCC(N)=O)C(=O)N[C@@H](Cc1c[nH]c2ccccc12)C(=O)N[C@@H](CCCN)C(N)=O |  | human erythrocytes O+ | 200 µg/mL, 2 h, 37 °C |  | hemolysis | 6.6%
C[C@H](Cn1cnc2c(N)ncnc21)OCP(=O)(O)O | LC-MS/MS | rhesus monkeys, both sexes, brain, four regions combined | dose not given, 1 day after last dose, ten days dosing |  | median brain concentration | 65 ng/g
CN[C@@](C)(C[18F])C(=O)O |  | SCID mouse A549 xenograft, kidney | 60 min, post injection |  | tissue uptake | 7.3 ± 1.3 %ID/g
CCCCCOc1ccc(-c2cc(-c3ccc(C(=O)N[C@H]4C[C@@H](O)[C@@H](O)NC(=O)[C@@H]5[C@@H](O)[C@@H](C)CN5C(=O)[C@H]([C@H](O)CC(N)=O)NC(=O)[C@H]([C@H](O)[C@@H](O)c5ccc(O)c(OS(=O)(=O)O)c5)NC(=O)[C@@H]5C[C@@H](O)CN5C(=O)[C@H]([C@@H](C)O)NC4=O)cc3)no2)cc1 |  | young infants, plasma | intravenous, 7 and 10 mg/kg/day pooled, day 4, median, repeat dosing |  | clearance at steady state | 0.5 mL/min
CSCC[C@@H]1NC(=O)[C@H](CC(=O)O)NC(=O)CNC(=O)[C@H](CCCNC(=N)N)NC(=O)[C@H](C)NC(=O)[C@H](CCC(=O)O)NC(=O)[C@H](CCCNC(=N)N)NC(=O)[C@@H]2CSSC[C@@H]3NC(=O)[C@H](CO)NC(=O)[C@H]([C@@H](C)O)NC(=O)[C@@H]4CCCN4C(=O)[C@H](C)NC(=O)[C@H](Cc4c[nH]c5ccccc45)NC(=O)[C@H](CC(=O)O)NC(=O)CNC(=O)[C@H](CCCNC(=N)N)NC(=O)CNC(=O)[C@H](CCC(N)=O)NC(=O)[C@@H]4CCCN4C(=O)[C@@H](NC(=O)CNC(=O)C(C)F)CSSC[C@H](NC(=O)CNC(=O)[C@H](C)NC(=O)[C@H](CC(C)C)NC(=O)[C@H](CSSC[C@@H](C(=O)NCC(N)=O)NC(=O)[C@H]([C@@H](C)O)NC(=O)[C@H](CCCNC(=N)N)NC(=O)[C@@H]4CCCN4C1=O)NC(=O)[C@H](CC(=O)O)NC(=O)[C@H](CO)NC(=O)[C@H](CC(=O)O)NC(=O)[C@H](CCC(N)=O)NC(=O)[C@H](CO)NC3=O)C(=O)N[C@@H](C(C)C)C(=O)N2 (stereo partly drawn) [fluorine-18 labelled] |  | nude mouse, U-87 MG xenograft, pancreas | intravenous, 2.5 h, added: cyclo(RGDyK) co-injected |  | tissue uptake | 0.19 ± 0.03 %ID/g
CC(=O)N[C@H](CCCCNC(=O)C(C)F)C(=O)N[C@@H](CS)C(=O)N[C@@H](CS)C(=O)N[C@@H](CCC(=O)O)C(=O)N[C@@H](Cc1c[nH]cn1)C(=O)N[C@H](Cc1ccccc1)C(=O)N[C@@H](CCCNC(=N)N)C(=O)N[C@@H](Cc1c[nH]c2ccccc12)C(=O)N[C@@H](CS)C(=O)N[C@@H](CCCNC(=N)N)C(=O)N1CCC[C@H]1C(=O)N[C@H](C(N)=O)C(C)C (stereo partly drawn) [fluorine-18 labelled] |  | male C57BL/6 mice, B16-F10 tumour, kidney | intravenous, 2 h |  | kidney uptake | 6.76 ± 0.82 %ID/g
Cc1cnc(C(=O)N[C@H]2CCCCC/C=C\[C@@H]3C[C@@]3(C(=O)NS(=O)(=O)C3CC3)NC(=O)[C@@H]3C[C@@H](Oc4nc5ccccc5c5ccccc45)CN3C2=O)cn1 |  | healthy human volunteers, plasma | oral, dose not given, added: pravastatin plus 2D regimen |  | AUC(0-24) | 1300 ng·h/mL
CCCCCCCCCCCCCCCC[N+](C)(C)CCCCCCCCCCCCCCCC | substrate depletion | human liver microsomes | 0.5 µM, 0 to 3 h, 37 °C, added: NADPH |  | intrinsic clearance | 0.147 mL/h/mg protein
CCCCCOc1ccc(-c2cc(-c3ccc(C(=O)N[C@H]4C[C@@H](O)[C@@H](O)NC(=O)[C@@H]5[C@@H](O)[C@@H](C)CN5C(=O)[C@H]([C@H](O)CC(N)=O)NC(=O)[C@H]([C@H](O)[C@@H](O)c5ccc(O)c(OS(=O)(=O)O)c5)NC(=O)[C@@H]5C[C@@H](O)CN5C(=O)[C@H]([C@@H](C)O)NC4=O)cc3)no2)cc1 |  | preterm neonates ≥1000 g, plasma | intravenous, 15 mg/kg/day, repeated dosing, mean |  | AUC(0-24) | 472000 ng·h/mL
O[C@H]1CCCN[C@@H]1CCCn1cnc2c(Cl)c(Cl)ccc21 |  | human, plasma | oral, 300 mg, single dose, healthy volunteers |  | MRT | 9.75 h
CC(C)C(=O)OC[C@H]1O[C@@H](n2ccc(NO)nc2=O)[C@H](O)[C@@H]1O |  | rat blood dialysate | 250 ng/mL, time not given, three freeze-thaw cycles, added: NHC 1000 ng/mL |  | remaining compound | 104 ± 5.39%
CC[C@H](C)[C@H](NC(=O)[C@@H](N)CCCNC(=N)N)C(=O)N[C@H](C(=O)N1CCC[C@H]1C(=O)N[C@@H](C)C(N)=O)C(C)C |  | healthy volunteers, both sexes, plasma | intravenous infusion, 3.0 mg/kg daily, day 7, multiple ascending dose |  | AUC(0-t) | 1000 ± 321 ng·h/mL
CNC(=O)c1ccc(-c2cnn3ccc(C(=O)N(C)c4ccc(Cl)c(C(=O)OC)c4)cc23)cc1 |  | Wistar rats, both sexes, plasma | oral, 250 mg/kg/day, day 14, 2-week toxicology study |  | AUC(0-8 h) | 10.3 ng·h/mL
CC1N=C(c2ccccc2F)c2cc(N3CCOCC3)ccc2NC1=O (stereo not drawn) | shake flask | PBS | 24 h, pH 7.4 |  | solubility | > 100 µM
Cc1c(P(=S)(c2ccccc2)c2ccccc2)n2ccccc2[n+]1C/C=C/c1ccccc1 |  | mouse, plasma | intraperitoneal, 10 mg/kg, 2 h |  | plasma concentration | 180 ng/mL
GLASTLTRWAHYNALIRAF | circular dichroism | peptide, 20% TFE |  |  | critical aggregation concentration | 50 µM
COc1ccc(C[C@@H]2NC(=O)[C@H]([C@@H](C)O)NC(=O)[C@@H]3[C@@H]4CCN3C(=O)[C@@H]3Cc5cn(c6ccc(F)cc56)CCCCCCN(Cc5ccc(cc5)CCNC(=O)[C@]5(C)CCCN5C2=O)C(=O)CCC(=O)N[C@@H](C)C(=O)N[C@H](CNC(=O)CCCCC[N+](C)(C)C)C(=O)N[C@@H](Cc2cccc(c2)CNC(=O)CO4)C(=O)N3)cc1 |  | fasted healthy humans, plasma | oral, 200 mg single dose, with 1800 mg Labrasol, geometric mean |  | AUC(0-t) | 1.17 µM·h
[123I]c1cncc(OC[C@@H]2CCN2)c1 | SPECT | human, high plasma nicotine, Pons | intravenous | reference: plasma | tissue/plasma ratio | 17.8
O=C(O)C(F)(OC(F)(F)C(F)(F)C(F)(F)F)C(F)(F)F (stereo not drawn) | LC-MS | C57BL/6J mouse female, plasma | drinking water, 2 mg/L each PFAS, 12 weeks |  | plasma concentration | 190 ng/mL
CN(C)C(=O)C(CCN1CCC(O)(c2ccc(Cl)cc2)CC1)(c1ccccc1)c1ccccc1 |  | rat | no efflux inhibition |  | log intrinsic permeability | -3.64

For quick reference, copied from above:
Substance | assay | test system | setting | scale | quantity | value
O[C@H]1CCCN[C@@H]1CCCn1cnc2c(Cl)c(Cl)ccc21 |  | human, plasma | oral, 300 mg, single dose, healthy volunteers |  | MRT | 9.75 h
CNC(=O)c1ccc(-c2cnn3ccc(C(=O)N(C)c4ccc(Cl)c(C(=O)OC)c4)cc23)cc1 |  | Wistar rats, both sexes, plasma | oral, 250 mg/kg/day, day 14, 2-week toxicology study |  | AUC(0-8 h) | 10.3 ng·h/mL
Cc1c(P(=S)(c2ccccc2)c2ccccc2)n2ccccc2[n+]1C/C=C/c1ccccc1 |  | mouse, plasma | intraperitoneal, 10 mg/kg, 2 h |  | plasma concentration | 180 ng/mL
